Experimental data pooled from the literature.
Parts stem from different laboratories: compare values within a part only. “And” joins repeats or separate records; there may be more than shown.
UniProt P49761, sequence (whole entry, looked up): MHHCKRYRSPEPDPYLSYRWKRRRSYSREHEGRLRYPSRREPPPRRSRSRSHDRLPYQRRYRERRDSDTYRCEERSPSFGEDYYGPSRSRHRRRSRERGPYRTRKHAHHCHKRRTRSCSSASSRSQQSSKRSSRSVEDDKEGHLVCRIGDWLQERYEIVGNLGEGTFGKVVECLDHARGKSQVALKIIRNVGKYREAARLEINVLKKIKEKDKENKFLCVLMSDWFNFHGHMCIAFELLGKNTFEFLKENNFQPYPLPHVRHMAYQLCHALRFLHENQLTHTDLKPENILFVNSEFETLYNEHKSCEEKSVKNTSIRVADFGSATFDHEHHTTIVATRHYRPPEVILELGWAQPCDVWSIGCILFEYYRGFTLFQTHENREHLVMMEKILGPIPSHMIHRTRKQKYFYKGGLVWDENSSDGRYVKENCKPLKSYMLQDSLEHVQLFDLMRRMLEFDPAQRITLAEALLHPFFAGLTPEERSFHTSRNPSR
UniProt Q9BYP7, sequence (whole entry, looked up): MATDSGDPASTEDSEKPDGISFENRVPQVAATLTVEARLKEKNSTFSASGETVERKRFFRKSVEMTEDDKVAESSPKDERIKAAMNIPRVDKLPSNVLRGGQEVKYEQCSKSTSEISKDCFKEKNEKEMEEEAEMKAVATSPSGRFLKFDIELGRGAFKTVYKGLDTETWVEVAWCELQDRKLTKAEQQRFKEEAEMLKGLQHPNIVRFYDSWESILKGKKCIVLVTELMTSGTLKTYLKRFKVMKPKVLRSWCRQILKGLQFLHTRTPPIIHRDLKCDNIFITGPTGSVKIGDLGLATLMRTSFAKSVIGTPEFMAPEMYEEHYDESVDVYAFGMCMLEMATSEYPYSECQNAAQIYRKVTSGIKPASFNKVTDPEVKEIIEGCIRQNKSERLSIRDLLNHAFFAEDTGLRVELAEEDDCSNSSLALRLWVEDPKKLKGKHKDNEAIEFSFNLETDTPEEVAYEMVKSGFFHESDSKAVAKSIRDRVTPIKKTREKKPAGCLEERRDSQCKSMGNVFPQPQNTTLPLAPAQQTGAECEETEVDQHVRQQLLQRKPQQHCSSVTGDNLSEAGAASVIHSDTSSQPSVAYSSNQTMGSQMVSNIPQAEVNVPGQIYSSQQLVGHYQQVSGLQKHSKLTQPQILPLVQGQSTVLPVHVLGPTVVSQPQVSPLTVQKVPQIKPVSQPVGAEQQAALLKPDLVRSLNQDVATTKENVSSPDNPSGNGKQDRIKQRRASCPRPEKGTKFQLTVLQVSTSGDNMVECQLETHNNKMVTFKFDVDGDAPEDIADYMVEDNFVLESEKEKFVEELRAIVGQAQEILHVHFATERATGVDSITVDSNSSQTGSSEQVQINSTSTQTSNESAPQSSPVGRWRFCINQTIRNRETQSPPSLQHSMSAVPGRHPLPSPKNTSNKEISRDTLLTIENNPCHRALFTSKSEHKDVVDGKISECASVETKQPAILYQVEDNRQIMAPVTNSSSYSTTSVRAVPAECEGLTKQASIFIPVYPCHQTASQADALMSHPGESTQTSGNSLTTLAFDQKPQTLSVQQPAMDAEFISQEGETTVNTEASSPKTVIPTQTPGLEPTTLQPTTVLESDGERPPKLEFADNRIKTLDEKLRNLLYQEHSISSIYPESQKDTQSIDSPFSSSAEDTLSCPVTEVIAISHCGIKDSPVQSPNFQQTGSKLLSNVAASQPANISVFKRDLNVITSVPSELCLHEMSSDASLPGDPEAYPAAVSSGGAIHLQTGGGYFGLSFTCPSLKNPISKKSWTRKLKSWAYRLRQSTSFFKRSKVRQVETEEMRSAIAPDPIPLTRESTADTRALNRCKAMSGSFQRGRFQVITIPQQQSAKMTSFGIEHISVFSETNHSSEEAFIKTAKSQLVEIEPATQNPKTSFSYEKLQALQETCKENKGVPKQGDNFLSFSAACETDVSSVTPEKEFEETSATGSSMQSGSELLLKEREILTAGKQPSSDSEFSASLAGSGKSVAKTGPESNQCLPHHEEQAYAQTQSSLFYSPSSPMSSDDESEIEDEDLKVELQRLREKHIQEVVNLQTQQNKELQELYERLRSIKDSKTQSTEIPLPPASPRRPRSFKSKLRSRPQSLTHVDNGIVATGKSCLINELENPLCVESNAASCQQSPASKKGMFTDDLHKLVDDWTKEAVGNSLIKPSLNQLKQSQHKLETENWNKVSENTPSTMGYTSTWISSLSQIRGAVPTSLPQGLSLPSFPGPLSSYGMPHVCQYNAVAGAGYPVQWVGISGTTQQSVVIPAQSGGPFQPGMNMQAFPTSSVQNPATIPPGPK
UniProt Q16566, sequence (whole entry, looked up): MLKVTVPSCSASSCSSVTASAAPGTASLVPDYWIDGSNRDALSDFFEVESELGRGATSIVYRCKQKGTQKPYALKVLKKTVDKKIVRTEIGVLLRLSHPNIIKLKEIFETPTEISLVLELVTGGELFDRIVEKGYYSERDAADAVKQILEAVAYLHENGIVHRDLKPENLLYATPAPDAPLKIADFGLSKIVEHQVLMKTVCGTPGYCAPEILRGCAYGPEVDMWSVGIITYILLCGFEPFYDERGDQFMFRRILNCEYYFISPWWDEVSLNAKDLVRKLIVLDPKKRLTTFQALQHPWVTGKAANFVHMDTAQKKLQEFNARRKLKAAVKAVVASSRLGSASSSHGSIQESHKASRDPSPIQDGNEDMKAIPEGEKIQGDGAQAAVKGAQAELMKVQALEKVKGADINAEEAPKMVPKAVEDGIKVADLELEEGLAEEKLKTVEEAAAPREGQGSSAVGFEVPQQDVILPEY
UniProt Q13557, sequence (whole entry, looked up): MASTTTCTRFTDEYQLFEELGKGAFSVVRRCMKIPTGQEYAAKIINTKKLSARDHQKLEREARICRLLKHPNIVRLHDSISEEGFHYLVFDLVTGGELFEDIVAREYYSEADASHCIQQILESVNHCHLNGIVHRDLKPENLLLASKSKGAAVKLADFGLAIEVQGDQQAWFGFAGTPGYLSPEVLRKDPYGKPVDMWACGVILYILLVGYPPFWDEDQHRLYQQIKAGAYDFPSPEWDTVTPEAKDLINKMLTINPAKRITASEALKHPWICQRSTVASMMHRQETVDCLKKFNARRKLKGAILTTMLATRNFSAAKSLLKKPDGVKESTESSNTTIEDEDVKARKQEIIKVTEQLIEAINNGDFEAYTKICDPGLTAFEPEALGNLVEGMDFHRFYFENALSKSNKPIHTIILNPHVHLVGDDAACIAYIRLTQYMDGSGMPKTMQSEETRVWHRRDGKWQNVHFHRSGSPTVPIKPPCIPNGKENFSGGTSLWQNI

Sample 1 — read-out: enzyme activity; mode: inhibitor; tested at: 10 µM
Target: Calcium/calmodulin-dependent protein kinase type II subunit alpha (CAMK2A, Homo sapiens, UniProt Q9UQM7)
UniProt Q9UQM7, sequence (whole entry, looked up): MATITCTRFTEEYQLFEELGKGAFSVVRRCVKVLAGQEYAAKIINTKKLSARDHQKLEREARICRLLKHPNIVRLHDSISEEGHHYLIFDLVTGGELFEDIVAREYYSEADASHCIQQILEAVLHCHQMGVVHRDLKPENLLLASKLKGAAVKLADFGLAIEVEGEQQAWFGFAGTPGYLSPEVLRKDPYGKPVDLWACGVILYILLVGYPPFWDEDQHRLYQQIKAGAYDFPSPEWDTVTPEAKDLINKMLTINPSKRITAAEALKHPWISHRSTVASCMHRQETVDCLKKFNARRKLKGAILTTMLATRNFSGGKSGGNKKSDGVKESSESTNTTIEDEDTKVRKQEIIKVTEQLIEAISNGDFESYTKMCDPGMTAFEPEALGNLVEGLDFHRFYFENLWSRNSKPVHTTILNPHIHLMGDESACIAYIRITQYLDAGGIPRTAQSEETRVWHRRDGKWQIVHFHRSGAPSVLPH
SMILES	inhibition [%]
COc1ccc(CCc2cc(OC)c(OC)c(OC)c2)cc1O	29
Nc1nnc(-c2cccc(Cl)c2Cl)c(N)n1	1
CCCC[C@@H]1OC(=O)C2=C1CCC=C2	-14
COc1cc(OC)c2ccc(=O)oc2c1	-20
CCOC(=O)c1ccc(OC(=O)CCCCCNC(=N)N)cc1	-15
O=C(O)Cc1cc(I)c(Oc2cc(I)c(O)c(I)c2)c(I)c1	-24
CCCCCCCCCCCCCCCC(=O)NCC(=O)O	-13
CC(C)C1=Cc2ccc3c(c2C(=O)C1=O)CCCC3(C)C	-37
C[C@@H]1CC[C@@]2(OC1)O[C@H]1C[C@H]3[C@@H]4CC=C5C[C@@H](O[C@@H]6O[C@H](CO)[C@@H](O[C@@H]7O[C@@H](CO)[C@H](O)[C@H]7O)[C@H](O)[C@H]6O[C@@H]6O[C@@H](C)[C@H](O)[C@@H](O)[C@H]6O)CC[C@]5(C)[C@H]4CC[C@]3(C)[C@@]1(O)[C@@H]2C	-8
CC(C)Oc1ccc(-c2nc(-c3cccc4c3CC[C@@H]4NCCO)no2)cc1C#N	10
CC(=O)OC[C@]12[C@H](OC(C)=O)[C@H](OC(C)=O)[C@@H]3[C@@H](OC(C)=O)[C@@]14O[C@@]3(C)COC(=O)c1cccnc1CC[C@H](C)C(=O)O[C@@H]([C@H](OC(=O)c1ccoc1)[C@@H]2OC(C)=O)[C@]4(C)O	-25
CN1C(=O)CC(c2ccccc2)C1=O (stereo not drawn)	1
Cc1cc(=O)oc2cc(O)ccc12	25
COc1c(O)cc2c(c1O)C(=O)c1c(cc(C)c(O)c1OC)C2=O	-73
CCC(=O)O[C@@H]1CC(=O)O[C@H](C)C/C=C/C=C/[C@H](O)[C@H](C)C[C@H](CC=O)[C@H](O[C@@H]2O[C@H](C)[C@@H](O[C@H]3C[C@@](C)(O)[C@@H](OC(=O)CC)[C@H](C)O3)[C@H](N(C)C)[C@H]2O)[C@H]1OC	-4
CN1C(=O)OC(C)(C)C1=O	-12
OC(c1ccccc1)(c1ccccc1)C12CC[N+](CCOCc3ccccc3)(CC1)CC2	-8
C=CC(C)(C)O[C@@H]1O[C@H](CO)[C@@H](O)[C@H](O)[C@H]1O	29
Oc1ncnc2[nH]ncc12	-5
COC(=O)C1=CO[C@@H](O)[C@@H]2[C@@H](C)[C@@H](O)C[C@H]12	-25
CCN(CC)C(=O)c1ccc(O)c(OC)c1	-5

Sample 2 — read-out: cell-free assay; method: TR-FRET
SMILES: O=C1CCC(N2Cc3cc(C4CCN(Cc5ccccc5)CC4)ccc3C2=O)C(=O)N1 (stereo not drawn)
Target: Protein cereblon (CRBN, Homo sapiens, UniProt Q96SW2)
UniProt Q96SW2, sequence (whole entry, looked up): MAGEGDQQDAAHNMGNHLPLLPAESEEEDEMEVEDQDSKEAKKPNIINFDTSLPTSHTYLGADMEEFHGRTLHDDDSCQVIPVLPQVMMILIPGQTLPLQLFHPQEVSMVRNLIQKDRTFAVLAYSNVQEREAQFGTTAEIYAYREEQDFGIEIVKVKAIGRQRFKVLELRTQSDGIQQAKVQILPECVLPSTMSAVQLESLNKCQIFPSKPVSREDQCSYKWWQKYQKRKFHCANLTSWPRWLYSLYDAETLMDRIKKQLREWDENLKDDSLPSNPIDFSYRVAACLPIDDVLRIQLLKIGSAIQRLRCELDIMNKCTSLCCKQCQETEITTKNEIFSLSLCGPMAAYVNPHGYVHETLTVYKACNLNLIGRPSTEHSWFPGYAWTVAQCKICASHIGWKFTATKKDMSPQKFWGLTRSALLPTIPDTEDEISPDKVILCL
tested at	inhibition
10 mM	99.4%
0.51 µM	0.9% and -8.7%
123.5 µM	27.1%
1.52 µM	0.8% and 3%
41.15 µM	5.3% and 13.9%
0.17 µM	-0.0425% and 4.2%

Sample 3 — read-out: enzyme activity; mode: inhibitor; tested at: 0.5 µM; relative to: control
Target: LIM domain kinase 1 (LIMK1, Homo sapiens, UniProt P53667)
UniProt P53667, sequence (whole entry, looked up): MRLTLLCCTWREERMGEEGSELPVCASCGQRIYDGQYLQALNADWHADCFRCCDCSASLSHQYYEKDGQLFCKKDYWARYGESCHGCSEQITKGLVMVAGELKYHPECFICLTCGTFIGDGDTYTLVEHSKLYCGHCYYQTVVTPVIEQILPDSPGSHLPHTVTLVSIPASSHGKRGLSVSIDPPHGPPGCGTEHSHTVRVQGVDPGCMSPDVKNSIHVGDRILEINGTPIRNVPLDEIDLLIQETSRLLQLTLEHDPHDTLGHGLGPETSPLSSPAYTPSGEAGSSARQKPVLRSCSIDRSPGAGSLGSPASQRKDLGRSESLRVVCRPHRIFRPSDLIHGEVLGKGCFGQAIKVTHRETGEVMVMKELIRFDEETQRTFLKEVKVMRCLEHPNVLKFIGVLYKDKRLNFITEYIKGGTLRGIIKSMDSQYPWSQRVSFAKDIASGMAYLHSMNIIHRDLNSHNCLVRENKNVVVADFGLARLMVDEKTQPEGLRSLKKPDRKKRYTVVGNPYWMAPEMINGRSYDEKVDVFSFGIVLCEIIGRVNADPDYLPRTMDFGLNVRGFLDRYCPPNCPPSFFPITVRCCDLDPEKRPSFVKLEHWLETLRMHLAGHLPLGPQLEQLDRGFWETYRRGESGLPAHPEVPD
Compound	remaining activity [%]
CC(=O)c1ccc(N2CCOCC2)cc1O	93.6
Oc1ccc(Nc2nc(-c3ccc(Cl)cc3)cs2)cc1	90.5
CC#CC(=O)Nc1cc2c(Nc3ccc(F)c(Cl)c3)ncnc2cn1	84.2
CC[n+]1c(/C=C/N(C)c2ccccc2)n(-c2ccccc2)c2ccc(-c3nc4ccccc4s3)cc21	98.3
Fc1ccc(-c2nc3n(c2-c2ccncc2)CCS3)cc1	89.3
CC(C)(C)n1nc(Cc2cccc3ccccc23)c2c(N)ncnc21	94.5
CCCC(=O)Oc1ccc2[nH]c(C(=O)c3cc4ccccc4[nH]3)cc2c1	93.9
Nc1ncnc2c1cnn2-c1ccccc1	89.1
N#CC(=C(N)Sc1ccc(N)cc1)c1ccccc1C(F)(F)F	98.7
Nc1nccc(-c2c(-c3ccc(F)cc3)ncn2C2CCNCC2)n1	89.6
CSc1nc(-c2ccnc(N[C@@H](C)c3ccccc3)c2)c(-c2ccc(F)cc2)[nH]1 (racemic)	103
Cc1cc(Nc2nc(-c3ccccc3)nc3ccccc23)n[nH]1	59.6
NC(=O)c1ccc(N(C(N)=O)c2c(F)cccc2F)nc1-c1ccc(F)cc1F	98.5
O=C1Cc2c([nH]c3ccc([N+](=O)[O-])cc23)-c2ccccc2N1	94.3
Cc1cncc2cccc(S(=O)(=O)N3CCCN(C(=O)CN)C[C@@H]3C)c12	91.9
CCc1[nH]c(-c2ccc(OC)cc2)nc1-c1ccncc1	94.9
Cc1ccc(NC2=CC(=O)c3sc(C)nc3C2=O)cc1	104
O=S(=O)(NCCNC/C=C/c1ccc(Br)cc1)c1cccc2cnccc12	90.6
COc1ccc(S(=O)(=O)N(CCO)c2ccccc2CN(C)CC=Cc2ccc(Cl)cc2)cc1	102
O=C1NC(=O)C(c2c[nH]c3ccccc23)=C1c1c[nH]c2ccccc12	103

Sample 4 — read-out: cell-free assay; method: competition with immobilised ligand; tested at: 1 µM
SMILES: O=C(NCc1ncc(C(F)(F)F)cc1Cl)c1ccc2c(c1)C1(CCS(=O)(=O)CC1)[C@@H](C1CC1)N2S(=O)(=O)c1ccc(F)cc1
target	remaining binding [%]
DAPK1 (Homo sapiens, UniProt P53355)	100
EPHA7 (Homo sapiens, UniProt Q15375)	100
ERBB3 (Homo sapiens, UniProt P21860)	100
HUNK (Homo sapiens, UniProt P57058)	85
CAMK4 (Homo sapiens, UniProt Q16566)	71
PRKD2 (Homo sapiens, UniProt Q9BZL6)	90
CLK3 (Homo sapiens, UniProt P49761)	100
RIPK1 (Homo sapiens, UniProt Q13546)	30
WNK3 (Homo sapiens, UniProt Q9BYP7)	70
BRSK2 (Homo sapiens, UniProt Q8IWQ3)	100
MST1R (Homo sapiens, UniProt Q04912)	100
CAMK2D (Homo sapiens, UniProt Q13557)	100
PIK3C2B (Homo sapiens, UniProt O00750)	90

A few entries again (sample 1):
SMILES	inhibition [%]
CCCCCCCCCCCCCCCC(=O)NCC(=O)O	-13
COc1cc(OC)c2ccc(=O)oc2c1	-20
CCN(CC)C(=O)c1ccc(O)c(OC)c1	-5
CCOC(=O)c1ccc(OC(=O)CCCCCNC(=N)N)cc1	-15
CCC(=O)O[C@@H]1CC(=O)O[C@H](C)C/C=C/C=C/[C@H](O)[C@H](C)C[C@H](CC=O)[C@H](O[C@@H]2O[C@H](C)[C@@H](O[C@H]3C[C@@](C)(O)[C@@H](OC(=O)CC)[C@H](C)O3)[C@H](N(C)C)[C@H]2O)[C@H]1OC	-4
Oc1ncnc2[nH]ncc12	-5
O=C(O)Cc1cc(I)c(Oc2cc(I)c(O)c(I)c2)c(I)c1	-24
